Measurements gathered from unrelated publications.
Compare with care: the assays were run in different laboratories. Numbers after ± are the reported error. In brackets after ≈: the same amount, converted by molar mass.
Chain of UniProt Q06187 (whole entry, looked up): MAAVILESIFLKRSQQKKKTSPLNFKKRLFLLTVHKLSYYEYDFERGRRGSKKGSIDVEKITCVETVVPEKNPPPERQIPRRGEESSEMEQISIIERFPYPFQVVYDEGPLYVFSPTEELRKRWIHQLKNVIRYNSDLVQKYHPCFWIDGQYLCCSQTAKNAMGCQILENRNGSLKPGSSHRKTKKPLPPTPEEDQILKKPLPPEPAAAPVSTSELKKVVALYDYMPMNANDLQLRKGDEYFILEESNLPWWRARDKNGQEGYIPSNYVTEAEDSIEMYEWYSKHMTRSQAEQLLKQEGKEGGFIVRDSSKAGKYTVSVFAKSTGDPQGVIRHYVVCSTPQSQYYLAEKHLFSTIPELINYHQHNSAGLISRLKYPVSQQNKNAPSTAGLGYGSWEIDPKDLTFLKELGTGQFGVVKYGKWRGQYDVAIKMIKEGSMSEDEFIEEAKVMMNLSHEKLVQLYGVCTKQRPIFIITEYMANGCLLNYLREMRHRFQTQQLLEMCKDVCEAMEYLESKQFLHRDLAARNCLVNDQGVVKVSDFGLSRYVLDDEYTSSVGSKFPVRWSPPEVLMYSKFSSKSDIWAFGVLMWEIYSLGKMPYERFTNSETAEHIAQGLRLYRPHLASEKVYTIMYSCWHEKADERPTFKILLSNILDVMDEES

Compound	tested on	test	system	conditions	measurement	value
O=C(NCc1ccccc1)c1cn(Cc2ccc(C(F)(F)F)cc2)c2ccc(Oc3ccccc3)cc2c1=O	MDA-MB-231-LM2-4	cytotoxicity		48 h	CC30	19.9 µM
COc1cc(-c2nc3ccccc3c(=O)n2Nc2ccc([N+](=O)[O-])cc2[N+](=O)[O-])ccc1OCc1cn(CC(=O)Nc2ccc([N+](=O)[O-])cc2C)nn1	mushroom tyrosinase	enzyme activity		40 µM, together with: L-DOPA	inhibition	36 ± 11%
COCCOc1cnc2ccn([C@H](C)c3nnc4c(F)cc(-c5cnn(C)c5)cn34)c(=O)c2c1			patients, plasma	oral, 50 mg once daily, day 1	half-life	6.9 h
COc1cc(-c2nc3ccccc3c(=O)n2Nc2ccc([N+](=O)[O-])cc2[N+](=O)[O-])ccc1OCc1cn(CC(=O)Nc2ccccc2F)nn1	mushroom tyrosinase	enzyme activity		40 µM, together with: L-DOPA	inhibition	21.9 ± 3.59%
COc1cc(/C=N/NC(=S)N/N=C/c2ccc(F)cc2)ccc1Oc1ccnc2cc(Cl)ccc12	human lysosomal acid alpha-glucosidase	inhibitor		together with: pNPG substrate	IC50	9.6 ± 0.22 µg/mL (≈ 18.9 µM)
O=C(Nc1cc(-c2ccc(Cl)cc2)[nH]n1)C1CCCCC1	Tyrosine-protein kinase BTK (BTK, Homo sapiens, UniProt Q06187)	enzyme activity, Dundee kinase panel		10 µM	remaining activity	81%
COc1cc(/C=N/NC(=S)N/N=C/c2ccccc2)ccc1Oc1ccnc2cc(Cl)ccc12	human lysosomal acid alpha-glucosidase	inhibitor		together with: pNPG substrate	IC50	12.4 ± 0.69 µg/mL (≈ 25.4 µM)
CCOc1c([C@H](C)n2nc(C)c3c(N)ncnc32)cc(Cl)c(F)c1[C@@H]1CNC(=O)C1			patients, monotherapy	oral, 30 mg once daily, cycle 1 day 15	half-life	8 ± 0.7 h

Repeated from above:
Compound	tested on	test	system	conditions	measurement	value
COc1cc(-c2nc3ccccc3c(=O)n2Nc2ccc([N+](=O)[O-])cc2[N+](=O)[O-])ccc1OCc1cn(CC(=O)Nc2ccccc2F)nn1	mushroom tyrosinase	enzyme activity		40 µM, together with: L-DOPA	inhibition	21.9 ± 3.59%
